Measurements pooled from the literature.
± gives the spread as reported.

SMILES | assay | system | conditions | remaining compound [%]
O=C(O)Cc1cc(F)ccc1Nc1c(Cl)cc(F)cc1Cl | glucuronidation | human liver microsomes | 30 min, with: UDPGA | 57 ± 3.2
CC(C)OC(=O)[C@H](CCC(=O)C=[N+]=[N-])NC(=O)OC(OC(=O)C(C)(C)C)c1ccccc1 (stereo partly shown) |  | swine plasma | 10 µM, 60 min, 37 °C | 83 ± 1
CCc1cn([C@@H]2O[C@H](CO)[C@@H](O)[C@H]2O)c2ncnc(C)c12 |  | mouse liver microsomes | 60 min, with: NADPH | 94
O=C(CCc1ccccc1)N[C@H]1CNC1=O |  | phosphate buffer, 10% MeCN | 1 µM, 24 h, pH 5.0, 37 °C | 97
C/C=C(/C)C(=O)O[C@H]1C(C)=C[C@]23C(=O)[C@@H](C=C(CO)[C@@H](O)[C@]12O)[C@H]1[C@@H](C[C@H]3C)C1(C)C |  | phosphate buffer 30% acetonitrile | 100 µM, 2 h, pH 7.4, 37 °C | ~63
CC(C)OC(=O)[C@H](CCC(=O)C=[N+]=[N-])NC(=O)OCOC(=O)C(C)(C)C |  | mouse plasma | 10 µM, 60 min, 37 °C | 0
O=S(=O)(O)Cc1ccccc1Nc1c(Cl)cccc1Cl | glucuronidation | human liver microsomes | 30 min, with: UDPGA | 111 ± 7.6
CN1C(=O)N[C@H]2[C@@H]3NC(=O)c4ccc(C(F)(F)F)n4[C@@H]3C[C@]21O | LC-MS | human AB serum | 50 µM, 24 h, 37 °C | 65 to 90
Fc1cc(Cl)c(Nc2ccc(F)cc2Cc2nnn[nH]2)c(Cl)c1 | glucuronidation | human liver microsomes | 30 min, with: UDPGA | 99 ± 3
CCCCCCCCC(=O)N[C@H]1CNC1=O |  | phosphate buffer, 10% MeCN | 1 µM, 24 h, pH 5.0, 37 °C | 98

Excerpt of the above:
SMILES | assay | system | conditions | remaining compound [%]
Fc1cc(Cl)c(Nc2ccc(F)cc2Cc2nnn[nH]2)c(Cl)c1 | glucuronidation | human liver microsomes | 30 min, with: UDPGA | 99 ± 3
CCCCCCCCC(=O)N[C@H]1CNC1=O |  | phosphate buffer, 10% MeCN | 1 µM, 24 h, pH 5.0, 37 °C | 98
